Measured values collected from several papers.
Numbered parts are unrelated; each lists some results of a single study. Positions count from the first letter of the parent shown.
Chain of UniProt Q96LR5 (whole entry, looked up): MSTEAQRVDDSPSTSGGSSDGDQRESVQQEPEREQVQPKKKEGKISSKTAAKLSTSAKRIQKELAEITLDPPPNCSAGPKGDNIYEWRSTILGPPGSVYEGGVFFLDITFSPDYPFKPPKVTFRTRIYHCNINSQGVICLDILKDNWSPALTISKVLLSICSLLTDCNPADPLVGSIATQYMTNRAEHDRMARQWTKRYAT
Chain of UniProt P49427 (whole entry, looked up): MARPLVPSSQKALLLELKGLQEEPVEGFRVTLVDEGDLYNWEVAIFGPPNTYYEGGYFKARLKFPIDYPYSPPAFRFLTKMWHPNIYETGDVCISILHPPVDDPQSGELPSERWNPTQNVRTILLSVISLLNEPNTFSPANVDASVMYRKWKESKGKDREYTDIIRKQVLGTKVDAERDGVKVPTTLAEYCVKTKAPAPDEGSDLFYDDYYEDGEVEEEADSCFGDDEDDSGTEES
Chain of UniProt O14933 (whole entry, looked up): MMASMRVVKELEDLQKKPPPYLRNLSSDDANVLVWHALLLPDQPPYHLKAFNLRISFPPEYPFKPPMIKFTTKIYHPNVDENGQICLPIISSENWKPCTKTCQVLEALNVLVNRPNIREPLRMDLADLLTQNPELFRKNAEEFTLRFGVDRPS
Chain of UniProt Q15819 (whole entry, looked up): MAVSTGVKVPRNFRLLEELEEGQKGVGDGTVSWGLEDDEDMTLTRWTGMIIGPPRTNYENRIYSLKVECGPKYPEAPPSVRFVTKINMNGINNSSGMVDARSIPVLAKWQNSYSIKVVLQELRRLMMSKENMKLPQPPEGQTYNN
Chain of UniProt P61088 (whole entry, looked up): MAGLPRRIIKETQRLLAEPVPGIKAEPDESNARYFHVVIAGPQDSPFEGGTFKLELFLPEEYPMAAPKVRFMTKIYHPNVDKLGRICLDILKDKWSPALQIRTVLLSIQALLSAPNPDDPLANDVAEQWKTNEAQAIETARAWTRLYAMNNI

Block 1
Molecule: B1 (TRIM60 RING domain)
Method: yeast two-hybrid
Sample: yeast
Setting: mostly zero background
Relative to: not given
Reading: higher = stronger interaction
Endpoint: lacZ reporter activity
B1: TRIM60 RING domain (UniProt Q495X7); chain ALVNLQEESSCPICLEYLKDPVTINCGHNFCRSCLSVSWKDLDDTFPCPVCRFCFPYKSFRR
UBE2V2 UBC core domain (UniProt Q15819): 0
CDC34 UBC core domain (UniProt P49427): 0
UBE2N UBC core domain (UniProt P61088): 0
UBE2E2 UBC core domain (UniProt Q96LR5): 0
UBE2L6 UBC core domain (UniProt O14933): 0

Block 2
Target: Hepatocyte nuclear factor 3-alpha (Foxa1, Mus musculus, UniProt P35582, residues 1-468, full length assumed)
Method: EMSA with sequencing
Form: double-stranded DNA, one strand shown
Sample: in vitro
Concentration: 10 and 20 nM
Setting: whole designed probe, mean of two concentrations, ends assumed
Relative to: negative control set to 0
Reading: higher = stronger binding
Endpoint: normalised bound fraction
All sequences stand within: GTGAGCGGTGCCCATTGATGGGGAAC … TTTCACTGGGATCGTGGGGAC
Construct (chain): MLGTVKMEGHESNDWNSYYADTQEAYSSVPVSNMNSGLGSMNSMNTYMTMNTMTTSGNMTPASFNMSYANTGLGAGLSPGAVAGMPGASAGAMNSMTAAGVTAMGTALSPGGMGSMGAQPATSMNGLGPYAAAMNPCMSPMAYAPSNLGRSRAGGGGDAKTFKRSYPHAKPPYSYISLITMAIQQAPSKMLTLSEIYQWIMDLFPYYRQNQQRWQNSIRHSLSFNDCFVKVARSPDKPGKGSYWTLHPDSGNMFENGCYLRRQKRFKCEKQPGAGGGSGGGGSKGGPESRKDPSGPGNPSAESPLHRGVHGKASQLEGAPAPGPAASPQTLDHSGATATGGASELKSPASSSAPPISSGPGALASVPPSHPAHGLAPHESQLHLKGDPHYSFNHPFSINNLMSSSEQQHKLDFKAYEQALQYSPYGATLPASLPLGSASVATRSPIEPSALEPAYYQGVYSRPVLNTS
CCATCTCAGCTGAGGGTACTATCATCCACCCTGTGGCCACATCCAGGAATGTGTGTATCACCTGGGCTCTGAGGATGACATCAGCTCTTCTAAGTCAACAGAATGTCGGGTCTGTTCTAAAAGTCTCATCTGACAAGGAGATCTTTAAGGCTTTACTCCCTTAAAGGCTTTACTCCCATCATGATGGGATAAC: 0.181 ratio
ATCTCTGGGTTCTTCCCTCTGAGAATCTCCCCCACCTCAGTTAAACTGCGCATCATAACTGCATGGCTATTTGAGATATTATTTTTAAATAACAAGATTACTTTGTGAAAGCTCTTAGTTAGGGAAACCAGAGGTCAGCATTGCAGTTAGATTACAGATCTGTGAAATGGCTTTGCCCTGCTACCCCCTTATT: -0.0359 ratio
GATTTTTGGGGATTTTTGAAAATAGCCCTATGTCTTGGATATGAGTCACAAATTGCCCCCCCCCCCACCATTTCGTCATTTGTCTCCAAGCTCTGTTTACATTGGTGTTTGCCGTGCAGAAGTTTTTCTTTAATGTAATAAAATGTAGCCATCTTTTTTAAAATGACCTCTGGACTTCATGTGTTTGGAGTTT: 0.361 ratio
GTACAAAATTGCACTCATTGCTCTCTTGCTGTTGGCTTATTCTGGATCTCAGATAAAACTTATAAAGAAAACAAGTAGTATGGATTTATGCTTGTTTACTTAGCCAGAGAAACAAAGGCAAATGCATATTCAGAGGTATACTGATAGCGATGTTTCCATGGAAACAAGGATGCTATCATAATATTTATTTCCA: 0.477 ratio
TCCTTTATCCCAACATGTTTATACAGACAAAACCAGGTTAAAATCGACACAAGGTCAACTTGAAATGGGGAGACAAGAGGAAGGTGTCACAAAATAAACATGAAGTCTTGTGTACAAGCATCTGCAGAAGAGTTCAGCCTCACCACTTGGGTAATGCTGTTGGAATGTGGTCTGGGTTCACTGTATTTGAATG: 0.398 ratio
CTCCTGACCTGGGACCCCACAGAGCTGGGCCTGTCATCACATTTATGGGGCTGCAGCTGACCTGGGAACTCCCTTCCTCAGTCAGTCCACAAATATTTACCCAGAGCCTCAGGGTGCTCAGTGACCTTTACAAAACAAAGTGCAGAGTCACGTGCCAGGGCACAGCAATCCCGGGCAAAACAGACCGAAACCC: 0.144 ratio
TGCAACATGCACCAGTTTCCTGGAGGTTAGTTGCTAATTCTAAAAGGCTTCAGATAATTCACTGTGTATTGAGTCATGGCTTGATGACGACCTTGTTTACAAAGCTCATTCAAACAGCCCAGTTCCTGCCCGTTTGCTCTTTGACCCTGACCGAAATCCACCAGAAGGCGAGTGACTTACAATGGGATTATTC: 0.236 ratio
GGGTTCTTCTGAAGGCACATTGCACCTTCTAGAAGGGTATGACTCAGAAGGAAAGAGAGAAAAACCTCTACTGGCAAGAGGAAATGGCTGCAGTGTTTACTTTATCTGAAAATGGCACACGCTTTTATTAAGACATAAATGCCAGTGATGGATTCTGCTCTTGGCGTGTGGCTGTGCTCCCCAGCCCTGAGGT: 0.403 ratio

Block 3
Target: RING finger protein unkempt homolog, zinc fingers 1-6, GST-SBP tag (UNK, Homo sapiens, UniProt Q9C0B0, residues 30-357)
Chain of UniProt Q9C0B0 (30-357, looked up): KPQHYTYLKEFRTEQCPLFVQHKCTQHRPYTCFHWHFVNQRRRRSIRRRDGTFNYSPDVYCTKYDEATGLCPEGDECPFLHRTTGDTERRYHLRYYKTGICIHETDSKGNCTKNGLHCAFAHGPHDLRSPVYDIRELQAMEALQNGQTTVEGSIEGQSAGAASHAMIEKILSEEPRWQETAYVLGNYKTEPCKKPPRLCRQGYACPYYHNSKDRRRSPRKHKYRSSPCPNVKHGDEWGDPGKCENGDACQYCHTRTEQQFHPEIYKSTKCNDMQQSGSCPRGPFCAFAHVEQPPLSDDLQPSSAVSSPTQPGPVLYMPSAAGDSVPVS
Method: RNA Bind-n-Seq
Form: RNA
Sample: in vitro
Concentration: not given
Setting: RNA with constant flanks, ends assumed
Relative to: input RNA pool
Reading: higher = stronger binding
Endpoint: bound/input enrichment
All sequences stand within: GGGAGUUCUACAGUCCGACGAUC … CAACAGAGGAUUGAGCAUCA
CUUUCUGACUAUCAGCGUAUUCGAGUGGAAAAUGUGUGUAAAAGGCUUAAUCUCCAGCCUUCCGCUUAUCUUUGGCAGAGAAACCAGGAAGAUUUGCUCAGAGAGAUGAUAUCAUCUAAC: 0.17 ratio
GGAGCGGGUCUGGGGCUCAGCCGGCGGCCCGAAGGUGCGGCGCCAUGAAGCUGUACAGCCUCCGUGUCCUUUACAAAGGCGAUCCGAAAGCGGUGCUGCUCAAGGCCGCGUACGACGUGU: 0.11 ratio
CUGUGUCUGCAGGAGCCUGGGGUGUUCCCACAGGAGGUGGCUGACCGGCUUCUUCAGACUACCGCAUUCCACGGUCUCCUGAAUGAUGGAACUGUGGGAAUUUUCAGAGGUAACCAGAUG: 0.12 ratio
AGAGUCCAAUAAAAUCGCUGCCUCCCAGCUGUUUGGAUCACAGAGAGGUUUUUGCACUGCCACCGGGCGCCCCCGUGAGGCGCUUCGCCCCCCACCAUGUUCCAGCGCCUCUCCAGCCUC: 0.414 ratio
GAAGAUGGAGAAGAUCAACCAAAGCAAGUUUAUGUAGACAAAUUGGCUGAAUUAAAAAGUUCCGGUCAACCCAUUAAGACACGGUUCCAGGAAUCUGAAGAAAGACCAAAAUUAUUUGAA: 0.382 ratio
UCCUUGGAACCCAGUCAUAUAGGUGACCUGCAGAAAGCAGACACCAGUAGUCAAGGUGCUUCCGUGUUUCUCUCAAAGGACUACGAGAUAGAAAGUCAAAAUCCUCUGGCCUCUCCUACG: 0.428 ratio
CUCUCCAGUAGAAGCUGUGAGCACACCUAACACUCCUCGAAACCUUGCUGCCUGGAAAAUCCGCAUUCCGUAUGUAGACUUUUUUGAAGAUCCCUCCUCUGAAAGGAAAGAGAAGAAGGA: 0.447 ratio
ACAAUCGUUGACACAGUGGGAUUUGGAGACCAGAUUAAUAAAGAUGACAGCUAUAAGCCUACCGUGGAAUACAUUGACGCCCAGUUUGAGGCCUACUUGCAAGAAGAAUUGAAAAUUAAA: 0.233 ratio

Other studies, line by line
Starting sequence: viral docking peptide; KGVKRKLFAEDSS; partner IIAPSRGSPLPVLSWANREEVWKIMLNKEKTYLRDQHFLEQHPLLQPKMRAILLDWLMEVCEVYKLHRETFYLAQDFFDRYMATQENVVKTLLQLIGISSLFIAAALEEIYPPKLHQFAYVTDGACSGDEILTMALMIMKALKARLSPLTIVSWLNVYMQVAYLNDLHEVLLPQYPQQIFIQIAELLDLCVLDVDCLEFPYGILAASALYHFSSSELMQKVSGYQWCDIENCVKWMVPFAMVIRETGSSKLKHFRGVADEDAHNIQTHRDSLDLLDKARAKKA
KGVKQKLFAEDSS [R5Q]  normalised enrichment score (CCNE1, cyclin fold, Cln2 fusion (human); yeast growth competition, sequencing; yeast; strong parent motif; relative to: not given, higher = stronger binding): 1.15
